Measurements of several laboratories.
Parts stem from different laboratories: compare values within a part only. Substitutions count along the parent as printed.

Sample 1 — target: CCNB1, cyclin fold, Cln2 fusion (human); method: yeast growth competition, sequencing; sample: yeast; setting: weak parent motif; relative to: not given; direction: higher = stronger binding
Starting sequence: CDC25A docking peptide (human); PPHRRRLLFACSP
Substitution	normalised enrichment score
PPHRRRCLFACSP [L7C]	0.459
PPHRRRLLFDCSP [A10D]	0.672
PPHRRRLLFYCSP [A10Y]	0.39
PPSRRRLLFACSP [H3S]	1.11
PPRRRRLLFACSP [H3R]	0.864
PPHRRRLLFACCP [S12C]	0.504
PPHRDRLLFACSP [R5D]	0.481
PPCRRRLLFACSP [H3C]	1.39
EPHRRRLLFACSP [P1E]	0.524
PPHRRRLVFACSP [L8V]	0.514
PPHRRRLLFVCSP [A10V]	0.394
PSHRRRLLFACSP [P2S]	0.315
PPWRRRLLFACSP [H3W]	1.59
PPHRRRLLFACIP [S12I]	1.29
PPHRRRQLFACSP [L7Q]	0.258
PPKRRRLLFACSP [H3K]	-0.0458

Sample 2 — method: protein-binding microarray; form: double-stranded DNA, one strand shown; sample: in vitro; concentration: 250 nM; setting: 60-bp whole probe; added: salmon DNA 0.4 mg/ml; relative to: random background probes; direction: higher = stronger binding; constant ends, left off below: GCCTAGCAC … GTCTTGATTCGCTTGACGCTGCTG
Target: Interferon regulatory factor 5, full length, phosphomimetic (IRF5, Homo sapiens, UniProt Q13568-2, residues 1-514, K96S/S451D/S453D/S456D/S462D)
Sequence	log fluorescence
GACGGTTTCGGTATCTGGACGTGCTAG	9.67 z-score
GACTGACTGGGGTTTCGGGACGTGCTA	1.19 z-score
GACGGTTTCGACACTGGGTACGTGCTA	4.68 z-score
TTCCTTCTGCCTGTCCATTCGTGCTAG	0.666 z-score
GGCGGTCTCCTTATCCTGACGTGCTAG	-0.486 z-score
GACGGACTAGACTATCGGGACGTGCTA	0.896 z-score
TTATGTATCGGGACTGGGTTAGTGCTA	1.92 z-score
GACGATTCCAGGTTCGAGACGTGCTAG	-0.0031 z-score
CTAGGTCTCCTTCTCCTTTAGTGCTAG	-0.102 z-score
GACGATTCCGGGTTTCGAGACGTGCTA	1.92 z-score
ATTGATAGTTTCACAATGCCGTGCTAG	4.2 z-score
TTAGATCTCACACTGGATTAGTGCTAG	-0.0654 z-score
TCAGCTCACGCTTTGGAACTGTGCTAG	-0.365 z-score
TTAGAACTGAGAGTGGATTAGTGCTAG	0.0847 z-score
CACGGTATCGGGTATCGGGACGTGCTA	2.86 z-score
TGGGTATTTTTTCTGAACCAGTGCTAG	0.589 z-score
TTAGGTATCGGGTATCAGTTAGTGCTA	4.82 z-score
TTAGATATCATTTTCGATTAGTGCTAG	8.21 z-score

Sample 3 — method: DHFR PCA, deep sequencing; sample: yeast; added: (+)-ABA 4.8 µM; relative to: wild-type fitted maximum; direction: higher = stronger binding
Target: ABI1, truncated, D143A, DHFR fusion (Arabidopsis thaliana)
Setting: methotrexate growth selection, single substitutions
Starting sequence: PYL1, truncated, DHFR fusion (Arabidopsis thaliana); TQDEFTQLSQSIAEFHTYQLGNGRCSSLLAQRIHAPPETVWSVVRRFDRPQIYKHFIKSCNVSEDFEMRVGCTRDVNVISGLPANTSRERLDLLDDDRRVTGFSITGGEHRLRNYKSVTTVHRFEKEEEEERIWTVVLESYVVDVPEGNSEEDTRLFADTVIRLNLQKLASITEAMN; partner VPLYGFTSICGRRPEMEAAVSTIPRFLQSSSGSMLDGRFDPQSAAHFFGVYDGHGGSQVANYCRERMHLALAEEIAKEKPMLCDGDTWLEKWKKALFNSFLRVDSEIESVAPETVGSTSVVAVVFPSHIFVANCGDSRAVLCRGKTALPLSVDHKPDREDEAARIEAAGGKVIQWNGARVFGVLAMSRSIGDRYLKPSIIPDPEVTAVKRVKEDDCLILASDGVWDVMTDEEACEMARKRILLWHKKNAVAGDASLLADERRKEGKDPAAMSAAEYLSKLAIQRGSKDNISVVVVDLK
Substitution	relative binding score [%]
V142S	69.4
K54A	-2.65
R74G	-7.16
T119K	7.96
L94S	4.19
G108V	-9.62
E127I	64.3
L8V	40.6
P50L	-9.26
S104Y	-17.5
S140E	-4.6
N61G	46.2
N177H	88.1
E109H	28.8
H55N	65.8

Other studies, line by line
Substance	target	assay	system	conditions	how to read	quantity	value
PhoQ, residues 284 288 289 292 302 303 SACGEM	PhoP, residues 12 14 15 18 19 STHWV (Escherichia coli, UniProt P23836)	Sort-seq, item: YFP reporter	E. coli	PhoQ-PhoP variant library, added: 10 µM Mg2+	relative to: high Mg2+ state, higher = stronger signaling	fold induction	23.2

Some of these lines once more (sample 1):
Substitution	normalised enrichment score
PSHRRRLLFACSP [P2S]	0.315
PPWRRRLLFACSP [H3W]	1.59
PPHRRRLLFACIP [S12I]	1.29
